Measured values of several laboratories.
Protocols differ between the studies behind these lines. “And” joins repeats or separate records; there may be more than shown. ± gives the spread as reported.
Sequence of UniProt P46663 (whole entry, looked up): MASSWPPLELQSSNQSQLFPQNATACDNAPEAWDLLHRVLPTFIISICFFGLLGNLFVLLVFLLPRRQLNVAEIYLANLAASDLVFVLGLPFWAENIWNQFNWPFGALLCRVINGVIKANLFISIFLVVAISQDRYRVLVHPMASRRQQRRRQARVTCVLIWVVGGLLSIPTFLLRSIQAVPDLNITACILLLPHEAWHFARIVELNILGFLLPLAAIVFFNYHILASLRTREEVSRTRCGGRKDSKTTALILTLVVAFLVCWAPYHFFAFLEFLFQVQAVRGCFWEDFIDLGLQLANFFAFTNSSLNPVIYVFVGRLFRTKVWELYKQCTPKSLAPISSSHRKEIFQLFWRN

SMILES | tested on | test | system | conditions | how to read | measurement | value
O=C(C[Se]C(=O)c1ccccc1)Nc1cccc(C(F)(F)F)c1 | NCI60 non-small-cell lung subpanel | cell growth | – | 10 µM, 48 h, one-dose | – | mean growth percent | -65.9%
CS(C)(=O)=Nc1ccc(-c2ccc(-c3nc4cc(O[C@@H]5CO[C@H]6[C@@H]5OC[C@H]6O)[nH]c4cc3F)cc2)cc1 | BDKRB1 (Homo sapiens, UniProt P46663) | calcium signal, antagonist | – | 10 µM | – | inhibition | 30%
CC(=O)NCSC[C@H](NC(=O)[C@@H]1CCCN1C(=O)[C@H](C)NC(=O)[C@@H](NC(=O)CNC(=O)[C@@H](NC(=O)[C@H](Cc1c[nH]c2ccccc12)NC(=O)[C@H](C)NC(=O)CNC(=O)[C@H](CO)NC(=O)[C@H](C)NC(=O)[C@@H]1CCCN1C(=O)[C@H](Cc1c[nH]c2ccccc12)NC(=O)[C@H](C)NC(=O)[C@H](C)NC(=O)[C@@H](N)Cc1ccc(O)cc1)[C@@H](C)O)[C@@H](C)O)C(=O)N[C@@H](CO)C(=O)N[C@@H](C)C(=O)NCC(=O)N[C@H](C(=O)NCCOCCOCCOCCOCCOCCOCCOCCOCCOCCOCCOCCOCCC(=O)N[C@@H](CS)C(N)=O)[C@@H](C)O | H1666 lung adenocarcinoma | cell binding, phage binding, measured: output/input phage | – | 10 min, 37 °C | relative to: control phage | selectivity ratio | 0.86 ± 0.15
O=C1NC(=O)c2c1c1cc(F)c[n+]3c1c1c2c2cc(O)ccc2[n]1[Ru-4]312([N]=C=S)[S+]3CC[S+]1CC[S+]2CC3 (stereo not drawn) | Cyclin-dependent kinase 2, with cyclin E (CDK2, Homo sapiens, UniProt P24941) | enzyme activity | – | 100 nM, human enzyme, together with: 10 µM ATP | relative to: untreated | remaining activity | 83%
Cc1cc(C(=O)Nc2nc3cccc(C)c3n2[C@H]2CCCCN(C(=O)/C=C/CN(C)C)C2)ccn1 | Trypanosoma brucei | propidium iodide flow cytometry | bloodstream form | concentration not given, 24 h | – | multinucleated cells | 11.7%
CC(=O)Oc1ccccc1C(=O)[Se]CC(=O)Nc1cccc(C(F)(F)F)c1 | NCI60 NSCLC subpanel | NCI60 five-dose screen | – | – | – | CC50 | 16.8 µM
COc1ccccc1-c1n[nH]c2nc(NC3CCN(C(=O)Cc4ccc(F)cc4F)CC3)ncc12 | – | bead binding, competition bead pull-down, measured: LINJ.34.0870 | Leishmania donovani axenic amastigote extract | 10 µM | relative to: vehicle | relative abundance | 0.93
CC(C)[C@H](NC(=O)[C@H](CCCNC(=N)N)NC(=O)[C@@H]1CCCN1C(=O)[C@@H](NC(=O)[C@H](C)NC(=O)[C@H](Cc1ccc(O)cc1)NC(=O)[C@H](CCC(N)=O)NC(=O)[C@H](CCCCN)NC(=O)[C@H](CCCNC(=N)N)NC(=O)[C@@H]1CCCN1C(=O)[C@H](CCC(=O)O)NC(=O)[C@@H](NC(=O)[C@H](C)N)[C@@H](C)O)[C@@H](C)O)C(=O)N[C@@H](Cc1ccccc1)C(=O)N[C@@H](Cc1c[nH]c2ccccc12)C(=O)N[C@H](C(=O)N[C@@H](CC(=O)O)C(=O)N[C@@H](C)C(=O)N1CCC[C@H]1C(=O)NCC(=O)NCCOCCOCCOCCOCCOCCOCCOCCOCCOCCOCCOCCOCCC(=O)N[C@@H](CS)C(N)=O)[C@@H](C)O | H1155 lung large cell carcinoma | cell binding, phage binding, measured: output/input phage | – | 10 min, 37 °C | relative to: control phage | selectivity ratio | 0.56 ± 0.19
COc1ccccc1-c1n[nH]c2nc(N[C@H]3CC[C@H](NS(=O)(=O)CC(C)C)CC3)ncc12 | – | bead binding, competition bead pull-down, measured: LINJ.29.2310 | Leishmania donovani extract | 10 µM | relative to: vehicle | relative abundance | 0.85
CC(C)(C)C(=O)OCOP(=O)(OCOC(=O)C(C)(C)C)C1CCCN(O)C1=O (stereo not drawn) | UACC-62 | – | – | – | – | CC50 | > 100 µM
CC(C)C[C@H](NC(=O)[C@H](CC(=O)O)NC(=O)CNC(=O)[C@@H](N)CCCNC(=N)N)C(=O)N[C@@H](C)C(=O)N[C@H](C(=O)N[C@@H](CC(C)C)C(=O)N[C@@H](CCCNC(=N)N)C(=O)N[C@@H](CCC(N)=O)C(=O)N[C@@H](CC(C)C)C(=O)N[C@@H](C)C(=O)N[C@@H](CCC(N)=O)C(=O)N[C@@H](CCC(=O)O)C(=O)N[C@@H](CC(=O)O)C(=O)NCC(=O)N[C@H](C(=O)N[C@H](C(=O)NCC(=O)N[C@H](C(=O)N[C@@H](CCCNC(=N)N)C(=O)NCCOCCOCCOCCOCCOCCOCCOCCOCCOCCOCCOCCOCCC(=O)N[C@@H](CS)C(N)=O)C(C)C)C(C)C)C(C)C)[C@@H](C)O | H2087 | phage binding | – | 10 min, 37 °C | relative to: control phage | selectivity ratio | 2.9 ± 1.4
Cc1cc(Oc2nc(N3CC[C@@H](c4ccncc4)C3)ncc2F)[nH]n1 | CLS-439 | cell proliferation | – | – | – | IC50 | 64.6 µM
O=C1NC2(CC2)COc2ncc(F)cc2[C@H]2COCCN2c2ccn3ncc1c3n2 | – | – | Sprague-Dawley rat, female, plasma | oral, 2.5 mg/kg/day, end of recovery, 4-week repeated-dose toxicity | – | prothrombin time | 8.1 ± 0.2 s
CSCC[C@H](NC(=O)[C@@H](NC(=O)[C@H](CCC(N)=O)NC(=O)[C@H](CO)NC(=O)[C@@H](N)C(C)C)[C@@H](C)O)C(=O)N[C@@H](CCCNC(=N)N)C(=O)N[C@@H](CCC(N)=O)C(=O)N[C@H](C(=O)N[C@@H](C)C(=O)N[C@H](C(=O)N1CCC[C@H]1C(=O)N[C@@H](CC(C)C)C(=O)N[C@@H](CC(C)C)C(=O)N[C@@H](Cc1c[nH]c2ccccc12)C(=O)N[C@@H](Cc1ccccc1)C(=O)N[C@@H](Cc1c[nH]c2ccccc12)C(=O)N[C@H](C(=O)NCC(=O)N[C@@H](CO)C(=O)N[C@@H](CC(C)C)C(=O)NCCOCCOCCOCCOCCOCCOCCOCCOCCOCCOCCOCCOCCC(=O)N[C@@H](CS)C(N)=O)[C@@H](C)O)C(C)C)[C@@H](C)O | H2087 | phage binding | – | 10 min, 37 °C | relative to: control phage | selectivity ratio | 39 ± 13
O=C(C[Se]C(=O)c1ccccc1Nc1ccccc1)Nc1cccc(C(F)(F)F)c1 | NCI60 NSCLC subpanel | NCI60 five-dose screen | – | – | – | CC50 | 6.08 µM
COc1ccccc1-c1ccncc1C(=O)Nc1nnc(OCc2ccc(Cl)cc2)s1 | RPE-1 BRCA1 WT parental | – | – | 2 µM, run 1 | relative to: untreated | colony survival | 88.9%
O=C(O)c1ccc(-c2nc(-c3ccccc3Cl)c3sccn23)cc1 | human CD34+ hematopoietic stem cells | megakaryocyte differentiation, flow cytometry, measured: CD41a | – | 10 µM, day 10, together with: TPO | relative to: control | fold change | 1 fold and 1.02 fold and 1.01 fold
O=C(C[Se]C(=O)c1cc2ccccc2s1)Nc1cccc(C(F)(F)F)c1 | NCI60 ovarian subpanel | cytotoxicity, inhibitor | – | five-dose | – | CC50 | 8.08 µM
